Measurements from different studies.
Lines come from different studies, so protocols differ. ± gives the spread as reported.

O=C1Nc2cc3[nH]nc(-c4ccncc4)c3cc2CN1Cc1ccccc1 — patients with grade ≥3 TEAE (item: transaminases increased; patients with advanced solid tumours; intravenous, dose not given): 7%
N=c1c2c(-c3ccccc3)c(-c3ccccc3)n(Cc3ccccc3)c2ncn1[C@H]1CC[C@H](O)CC1 — AUC(0-t)/AUC(0-inf) ratio (cynomolgus monkey, male, plasma): > 95%
C[C@H]1COCCN1c1nc(NCc2cccnc2C(F)(F)F)c2cccnc2n1 — AUC(0-24 h) (BALB/c mice; oral, 10 mg/kg): 18000 ng·h/mL
CO[C@H]1C[C@@H]2CC[C@@H](C)[C@@](O)(O2)C(=O)C(=O)N2CCCC[C@H]2C(=O)O[C@H]([C@H](C)C[C@@H]2CC[C@@H](OC(=O)NCCOCCOCCOCCOCCOCCOCCOCCOCCC(=O)N3CCc4cc(Cn5nc(-c6ccc7oc(N)nc7c6)c6c(N)ncnc65)ccc4C3)[C@H](OC)C2)C[C@@H](O)[C@H](C)/C=C(\C)[C@@H](O)[C@@H](OC)C(=O)[C@H](C)C[C@H](C)/C=C/C=C/C=C/1C — incidence of Rash TRAE (patients with advanced solid tumours; intravenous, dose not given, any grade): 17.5%
NC(=O)[C@H]1CCN(c2ncnc(N)c2F)C[C@@H]1N1CCC[C@@H](Nc2cc(Cl)cc(C(F)(F)F)c2)C1=O — grade ≥3 leukopenia (B-cell malignancy patients; oral, 246 mg twice daily, dose): 0%
C[C@@H]1OC(=O)NN=C1c1ccc(-c2ccc(F)cc2)c(C(F)(F)F)c1 — patients with adverse event (phase I trial, item: Presyncope worst grade 2; human patients; 5 mg once daily): 0%
CC(C)C[C@H](NC(=O)[C@H](CCCCN)NC(=O)OCC1c2ccccc2-c2ccccc21)C(=O)N[C@H](C(=O)N[C@@H](Cc1ccccc1)C(=O)N[C@@H](Cc1ccccc1)C(=O)N[C@@H](CCCCN)C(=O)NCC(=O)N[C@@H](Cc1ccccc1)C(=O)N[C@@H](C)C(=O)N[C@@H](Cc1c[nH]c2ccccc12)C(=O)N[C@@H](CC(N)=O)C(=O)N[C@H](C(=O)N[C@H]1CSSC[C@@H](C(=O)N[C@@H](Cc2c[nH]cn2)C(=O)N[C@@H](CCCNC(=N)N)C(=O)N[C@@H](CCCNC(=N)N)C(=O)N[C@@H](C)C(=O)N[C@@H](CC(N)=O)C(N)=O)NC(=O)[C@H](C(C)C)NC(=O)[C@H](CCCNC(=N)N)NC(=O)[C@H](C(C)C)NC(=O)CNC(=O)[C@H](CC(N)=O)NC(=O)[C@H](CCCNC(=N)N)NC(=O)[C@H](Cc2ccc(O)cc2)NC(=O)[C@H](C(C)C)NC1=O)C(C)C)C(C)C — albumin (ICR mouse, blood; intramammary, 10 mg/kg, day 5, 3 d dosing): 35.1 ± 1.89 g/L
CC1(C)C(/C=C(\Cl)C(F)(F)F)C1C(=O)OC(C#N)c1cccc(Oc2ccccc2)c1 (centres unmarked) — enzyme contribution to clearance (item: CYP2C8; human, age 6 months): 0.09%
N#C[C@@]1(n2ccc(N)nc2=O)O[C@H](CO)[C@@H](O)[C@H]1O — clearance (CD-1 mouse; intravenous, 15 mg/kg): 12.3 mL/min/kg
C[C@]1(CO)Cc2ncn(-c3ccc(C#N)c(Cl)c3)c2C(=O)O1 — subjects with drug-related TEAEs (investigator-assessed; human, Chinese; 3 mg single dose): 16.7%
CCN1[C@@H](C(=O)NC23CCC(C(=O)O)(CC2)CC3)[C@H](c2cccc(Cl)c2F)[C@]2(C(=O)Nc3cc(Cl)ccc32)C12CCCCC2 — grade ≥3 Thrombocytopenia incidence (patients with advanced solid tumours; oral, 200 mg): 50%
O=S(=O)(Nc1ccccc1)c1ccc(NC(=S)Nc2ccccc2)cc1 — albumin level (male mouse, blood; oral, 5 mg/kg daily, 14 days): 2.9 g/dL
CN1CC[C@@H](c2c(O)cc(O)c3c(=O)cc(-c4ccc(C(F)(F)F)cc4Cl)oc23)[C@@H]1CO — patients with adverse event (item: Anemia; B-cell malignancies; oral, 150 mg, intermittent dosing): 0%
CC[C@H](C)[C@H](NC(=O)[C@H](Cc1ccccc1)NC(=O)[C@H](CCC(=O)O)NC(=O)[C@H](CCCNC(=N)N)NC(=O)[C@H](C)NC(=O)[C@H](C)NC(=O)[C@H](CCC(N)=O)NC(=O)[C@H](CCC(=O)O)NC(=O)[C@H](CCC(=O)O)NC(=O)[C@H](CC(C)C)NC(=O)[C@H](Cc1ccc(O)cc1)NC(=O)[C@H](CO)NC(=O)[C@H](CO)NC(=O)[C@@H](NC(=O)[C@H](CC(=O)O)NC(=O)[C@H](CO)NC(=O)[C@@H](NC(=O)[C@H](Cc1ccccc1)NC(=O)[C@@H](NC(=O)CNC(=O)[C@H](CCC(=O)O)NC(=O)[C@H](C)NC(=O)CCc1cnc[nH]1)[C@@H](C)O)[C@@H](C)O)C(C)C)C(=O)N[C@@H](C)C(=O)N[C@@H](Cc1c[nH]c2ccccc12)C(=O)N[C@@H](CC(C)C)C(=O)N[C@H](C(=O)N[C@@H](CCCNC(=N)N)C(=O)NCC(=O)N[C@@H](CCCNC(=N)N)C(=O)N[C@@H](CCCCNC(=O)COCCOCCNC(=O)COCCOCCNC(=O)CC[C@H](NC(=O)CCCCCCCCCCCCCCCCC(=O)O)C(=O)O)C(=O)NCC(=O)NCC(=O)N[C@@H](CO)C(=O)N[C@@H](CCSC)C(=O)N[C@H](C(=O)N[C@@H](CCCCNc1c(NCCCCCN(O)C(=O)CCC(=O)NCCCCCN(O)C(=O)CCC(=O)NCCCCCN(O)C(C)=O)c(=O)c1=O)C(=O)O)C(C)C)C(C)C [zirconium-89 labelled] — tissue uptake (ex vivo gamma counting; male Sprague-Dawley rats, pancreas; intravenous, 1 nmol, 24 h, mean of 3 animals): 0.161 %ID/g

Some of these lines once more:
NC(=O)[C@H]1CCN(c2ncnc(N)c2F)C[C@@H]1N1CCC[C@@H](Nc2cc(Cl)cc(C(F)(F)F)c2)C1=O — grade ≥3 leukopenia (B-cell malignancy patients; oral, 246 mg twice daily, dose): 0%
O=C1Nc2cc3[nH]nc(-c4ccncc4)c3cc2CN1Cc1ccccc1 — patients with grade ≥3 TEAE (item: transaminases increased; patients with advanced solid tumours; intravenous, dose not given): 7%
